Published values collected from several papers.
Parts stem from different laboratories: compare values within a part only. ± marks the error that the study gave.
Chain of UniProt P25929 (whole entry, looked up): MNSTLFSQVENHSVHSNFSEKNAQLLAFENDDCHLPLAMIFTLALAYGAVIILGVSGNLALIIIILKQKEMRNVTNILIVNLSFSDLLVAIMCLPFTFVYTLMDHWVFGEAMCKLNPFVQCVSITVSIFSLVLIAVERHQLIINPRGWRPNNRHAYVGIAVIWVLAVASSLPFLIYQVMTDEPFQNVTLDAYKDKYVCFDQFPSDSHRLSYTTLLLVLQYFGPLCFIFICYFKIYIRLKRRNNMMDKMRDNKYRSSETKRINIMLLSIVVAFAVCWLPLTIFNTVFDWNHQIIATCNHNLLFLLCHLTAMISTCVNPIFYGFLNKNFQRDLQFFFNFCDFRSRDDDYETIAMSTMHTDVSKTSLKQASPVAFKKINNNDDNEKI
Chain of UniProt Q6RI45 (whole entry, unmodified, looked up): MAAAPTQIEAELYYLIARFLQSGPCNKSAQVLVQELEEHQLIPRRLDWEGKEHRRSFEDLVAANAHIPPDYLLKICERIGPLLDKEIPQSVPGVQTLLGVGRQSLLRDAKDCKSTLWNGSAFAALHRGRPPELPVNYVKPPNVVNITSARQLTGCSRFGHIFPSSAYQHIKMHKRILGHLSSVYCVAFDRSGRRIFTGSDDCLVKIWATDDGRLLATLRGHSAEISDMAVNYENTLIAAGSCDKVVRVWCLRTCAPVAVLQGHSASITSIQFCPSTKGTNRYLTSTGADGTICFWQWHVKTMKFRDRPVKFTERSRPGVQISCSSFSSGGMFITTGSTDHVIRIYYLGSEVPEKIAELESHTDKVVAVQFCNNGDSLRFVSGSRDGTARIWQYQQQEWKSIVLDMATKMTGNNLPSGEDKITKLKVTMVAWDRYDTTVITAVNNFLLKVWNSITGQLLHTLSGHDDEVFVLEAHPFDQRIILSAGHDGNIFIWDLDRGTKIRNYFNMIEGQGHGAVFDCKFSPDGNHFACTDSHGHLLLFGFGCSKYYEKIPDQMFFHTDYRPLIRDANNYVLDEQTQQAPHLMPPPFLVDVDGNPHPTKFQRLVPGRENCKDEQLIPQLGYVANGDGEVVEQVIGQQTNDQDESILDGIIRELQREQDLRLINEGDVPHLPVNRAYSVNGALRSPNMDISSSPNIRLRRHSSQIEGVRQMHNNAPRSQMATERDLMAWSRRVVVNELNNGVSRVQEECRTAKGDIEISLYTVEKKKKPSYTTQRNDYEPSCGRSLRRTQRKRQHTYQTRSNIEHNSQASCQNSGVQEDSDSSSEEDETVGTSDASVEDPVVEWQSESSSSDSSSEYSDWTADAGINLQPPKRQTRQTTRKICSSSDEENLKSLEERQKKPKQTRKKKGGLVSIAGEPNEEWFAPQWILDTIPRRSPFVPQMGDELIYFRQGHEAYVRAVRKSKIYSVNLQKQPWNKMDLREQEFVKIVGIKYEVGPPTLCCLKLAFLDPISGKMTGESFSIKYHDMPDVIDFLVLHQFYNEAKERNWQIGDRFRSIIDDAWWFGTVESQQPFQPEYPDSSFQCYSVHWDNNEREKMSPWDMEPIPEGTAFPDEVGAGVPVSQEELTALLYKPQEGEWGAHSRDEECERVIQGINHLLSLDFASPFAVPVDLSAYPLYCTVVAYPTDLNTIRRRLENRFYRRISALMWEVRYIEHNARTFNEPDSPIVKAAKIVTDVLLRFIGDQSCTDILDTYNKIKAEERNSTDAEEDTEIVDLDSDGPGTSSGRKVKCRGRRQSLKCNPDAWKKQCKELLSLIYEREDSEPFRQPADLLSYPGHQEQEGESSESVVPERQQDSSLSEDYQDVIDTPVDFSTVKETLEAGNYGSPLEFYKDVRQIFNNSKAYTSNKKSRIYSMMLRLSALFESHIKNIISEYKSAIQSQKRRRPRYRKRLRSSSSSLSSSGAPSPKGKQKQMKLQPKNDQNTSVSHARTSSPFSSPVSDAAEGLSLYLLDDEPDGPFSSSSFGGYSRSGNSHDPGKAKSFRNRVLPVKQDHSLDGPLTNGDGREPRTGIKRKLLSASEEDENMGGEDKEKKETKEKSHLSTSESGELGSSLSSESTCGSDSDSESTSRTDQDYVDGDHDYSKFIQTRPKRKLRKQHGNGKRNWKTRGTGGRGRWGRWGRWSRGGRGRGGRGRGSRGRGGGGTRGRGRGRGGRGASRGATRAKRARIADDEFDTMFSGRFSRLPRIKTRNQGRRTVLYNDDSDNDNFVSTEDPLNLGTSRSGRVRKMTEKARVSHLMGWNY
Chain of UniProt O00519 (whole entry, looked up): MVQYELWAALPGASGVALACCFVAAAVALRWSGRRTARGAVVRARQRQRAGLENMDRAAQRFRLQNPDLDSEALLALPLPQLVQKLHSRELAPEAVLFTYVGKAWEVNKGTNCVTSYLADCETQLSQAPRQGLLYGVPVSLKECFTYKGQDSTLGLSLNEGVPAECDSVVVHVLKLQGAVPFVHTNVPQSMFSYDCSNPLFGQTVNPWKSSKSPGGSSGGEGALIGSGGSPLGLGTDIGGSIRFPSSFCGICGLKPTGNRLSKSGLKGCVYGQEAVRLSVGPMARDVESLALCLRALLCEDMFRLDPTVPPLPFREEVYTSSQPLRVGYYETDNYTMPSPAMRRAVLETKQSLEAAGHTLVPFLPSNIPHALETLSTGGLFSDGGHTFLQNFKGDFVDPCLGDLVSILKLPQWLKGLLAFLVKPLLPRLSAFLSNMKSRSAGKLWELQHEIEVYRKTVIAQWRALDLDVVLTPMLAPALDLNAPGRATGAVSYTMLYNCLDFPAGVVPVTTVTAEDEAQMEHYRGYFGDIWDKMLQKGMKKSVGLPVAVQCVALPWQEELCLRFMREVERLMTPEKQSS
Chain of UniProt P34913 (whole entry, looked up): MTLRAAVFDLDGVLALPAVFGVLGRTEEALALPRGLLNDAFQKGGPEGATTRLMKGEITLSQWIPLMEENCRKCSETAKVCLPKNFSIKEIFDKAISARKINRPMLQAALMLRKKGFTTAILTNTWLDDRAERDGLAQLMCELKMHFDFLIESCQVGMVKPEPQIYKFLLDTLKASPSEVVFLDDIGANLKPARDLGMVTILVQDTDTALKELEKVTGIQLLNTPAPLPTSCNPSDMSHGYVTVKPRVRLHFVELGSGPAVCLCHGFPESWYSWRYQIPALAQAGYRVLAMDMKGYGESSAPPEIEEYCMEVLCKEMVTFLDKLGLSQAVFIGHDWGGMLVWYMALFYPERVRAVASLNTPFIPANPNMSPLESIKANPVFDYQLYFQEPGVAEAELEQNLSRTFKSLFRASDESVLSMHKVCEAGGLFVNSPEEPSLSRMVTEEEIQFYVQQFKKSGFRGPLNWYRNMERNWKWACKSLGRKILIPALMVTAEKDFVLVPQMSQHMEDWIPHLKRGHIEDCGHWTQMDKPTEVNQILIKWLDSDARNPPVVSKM

Block 1
Structure (SMILES): Cc1cc(OCc2nnc(SC3CCCC3)n2-c2cccnc2)ccc1-c1ccc(S(C)(=O)=O)cc1
cell line	CC50
OVCAR-5	8.51 µM
SK-MEL-2	> 100 µM
HOP-62	> 100 µM
MDA-MB-435	6.06 µM
A498	4.47 µM
Hs-578T	> 100 µM
HT-29	> 100 µM

Further values, each from its own experiment
Substance	tested on	assay	test system	conditions	scale	endpoint	value
N#Cc1ccc(-c2csc(CNC(=O)C34CC(CN(C(=O)COCCF)C3)C4)n2)cc1			rat, Sprague Dawley, male, liver microsomes	0.5 µM		CLint scaled	< 5.6 mL/min/kg
CC[C@@H]1C(=O)N(C)c2cnc(Nc3ccc(C(=O)NC4CCN(C)CC4)cc3OC)nc2N1C1CCCC1	BRWD3, BD2 (Homo sapiens, UniProt Q6RI45)	thermal stabilisation, thermal shift		10 µM		ΔTm	1.34 ± 0.2 °C
Cc1ccc(S(=O)(=O)Nc2c(N3CCC(NC(=O)Nc4ccc(C#N)cc4Cl)CC3)c(=O)c2=O)cc1	Bifunctional epoxide hydrolase 2 (EPHX2, Homo sapiens, UniProt P34913)					IC50	0.0362 ± 0.0029 µM
C#Cc1cccc(Nc2ncnc3cc(OCCOC)c(OCCOC)cc23)c1	PC-3	MTT		12.5 µg/mL, RPMI medium with 2% serum		viability	8.91%
O=C(Nc1ccc(-c2cnc3ccccc3c2)cc1)C1CCN(Cc2cccnc2)CC1	Fatty-acid amide hydrolase 1 (FAAH, Homo sapiens, UniProt O00519)					IC50	0.198 µM
cyclic GMP-AMP	Bromodomain-containing protein 4, BD1 (BRD4, Homo sapiens, UniProt O60885)	binding, thermal shift		50 µM, BD1 domain		ΔTm	-0.57 ± 0.67 °C
human neuropeptide Y	Neuropeptide Y receptor type 1 (NPY1R, Homo sapiens, UniProt P25929)	agonist, ELISA	SK-N-MC cells	10 nM, 1 h, 37 °C, together with: forskolin 10 µM	relative to: forskolin-stimulated saline-treated cells	cAMP level	41.6 ± 6.9%
